Measured values collected from several papers.
Parts stem from different laboratories: compare values within a part only.

Set 1
Target: Interferon regulatory factor 5, full length, phosphomimetic (IRF5, Homo sapiens, UniProt Q13568-2, residues 1-514, K96S/S451D/S453D/S456D/S462D)
Technique: protein-binding microarray
Form: double-stranded DNA, one strand shown
Matrix: in vitro
Tested at: 250 nM
Notes: 60-bp whole probe
Together with: salmon DNA 0.4 mg/ml
Relative to: random background probes
Direction: higher = stronger binding
Constant ends, left off below: GCCTAGCAC … GTCTTGATTCGCTTGACGCTGCTG
| Sequence | log fluorescence [z-score] |
| --- | --- |
| GACAAACTGAGACTGGAGACGTGCTAG | -0.28 |
| GACGGTATCCTTATCCTGCCGTGCTAG | -0.0053 |
| TTAGATTTCAGTATCGAATAGTGCTAG | 4.88 |
| GATGGACTGCTTTTCCTGACGTGCTAG | -0.00637 |
| GACGAACTGGGTTTTCGAGACGTGCTA | 0.518 |
| TGGGCACACTTTGGGTCCTGGTGCTAG | -0.797 |
| TCATTTTTTTGTATTTTACTGTGCTAG | 1.54 |
| TTAGGACTAGACACTGGGTTAGTGCTA | -0.234 |
| GACGGGTTCGGTTTCGGGACGTGCTAG | 3.16 |
| CCATCGATTTCTCTTTCCCAAGTGCTA | 2.29 |
| GACGGTCTGGGTATCGGGACGTGCTAG | 0.537 |
| GACGGTTTCGGTTCCGAGACGTGCTAG | 9.01 |
| GAGGGTTTCGGGACTGGGGACGTGCTA | 2.68 |
| CACCAGCGAGGGCCCGGGAGGTGCTAG | -0.931 |
| TTTGCTCTGTGCATAGTTCTGTGCTAG | -0.187 |
| TCAATTCTCTGCTTCTGACTGTGCTAG | 0.678 |
| GACGATCTCAGTACCGAGACGTGCTAG | -0.03 |
| GACGATATCGGGACTGGATACGTGCTA | 0.886 |
| TTAGGTATCCTACTGCTTTAGTGCTAG | -0.222 |
| TTAGGTTTCCATTTCCTTTAGTGCTAG | 1.84 |
| TTAGGATCCCTTTTCCTTTAGTGCTAG | 0.417 |
| TTAGAACGGGGGACTGGATTAGTGCTA | 0.551 |
| TTAGGTTTCCTACTGGTTTAGTGCTAG | 0.451 |

Set 2
Target: Centromere-binding protein 1, full length, N-terminal tag (CBF1, Saccharomyces cerevisiae, UniProt P17106, residues 1-351)
Sequence of UniProt P17106 (whole entry, looked up): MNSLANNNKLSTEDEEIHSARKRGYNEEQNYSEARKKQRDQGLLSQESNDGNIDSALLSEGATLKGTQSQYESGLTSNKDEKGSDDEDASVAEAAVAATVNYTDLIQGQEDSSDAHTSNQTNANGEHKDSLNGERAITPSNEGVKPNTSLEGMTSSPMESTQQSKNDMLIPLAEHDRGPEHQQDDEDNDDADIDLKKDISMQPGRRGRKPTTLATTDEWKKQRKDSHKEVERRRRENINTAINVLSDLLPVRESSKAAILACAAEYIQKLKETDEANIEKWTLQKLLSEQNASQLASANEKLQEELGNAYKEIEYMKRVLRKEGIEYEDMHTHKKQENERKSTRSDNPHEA
Technique: protein-binding microarray
Form: double-stranded DNA, one strand shown
Matrix: in vitro
Tested at: 0.8 µM
Notes: whole 60-bp probe, no competitor
Direction: higher = stronger binding
Constant ends, left off below: … GTCTTGATTCGCTTGACGCTGCTG
| Sequence | fluorescence intensity [a.u.] |
| --- | --- |
| CTACAAGTTTGTGCGCACGACGCCTGTCCGTTGTTC | 553 |
| GAACATGAAAAGGTCCACGTTGCTGTCGCTGGATAG | 590 |
| CTATCTTCAGGATGGTACGTGCCACGGGACCATTTC | 3270 |
| TGTACGAAGCTATTACATGTGGGTATAGTAGTTAGG | 560 |
| CTAGGAAAAAATGCCCACGCGTATAAGAGTGGATTC | 521 |
| GAATTTTCACGTCGTCATGTGTTTCTTCAGCGCTAG | 1100 |
| GAAGTAAGATGATACCACGCAACTTTGTAATGATAG | 554 |
| CTATCGTAAAGGTGCCACGGGGATCCCAATGATTTC | 561 |
| CTATGAGGAATTGACAACGTGTTTGTATAAGATTTC | 632 |
| GAAACAAGAACATCTGGTGAAGCAGGCTACCCCTAG | 486 |
| GAAATTTTTTTAAGCAACATCAGCTGCACTAGTTAG | 584 |
| CTATTGTTATATCATGTGAGCACAACTGTCGTTTTC | 2030 |
| CCTAACTACTATATCCACACGTTATAGCTTCGTACA | 569 |
| CCTAACTACTATAGTGATGCGCCATAGCTTCGTACA | 498 |
| GAACTGTGCATCAACAAGGTGACAGAATGTTGATAG | 561 |
| GAATGAAAATATGCGCACGTCTATACACACAATTAG | 546 |
| CTATACATACGGAATCATGAGATTCTAAATTTATTC | 593 |
| CCTAACTACTATAATATGCACGTATAGCTTCGTACA | 534 |
| CTAATACGTCTTAATTACGTGAAGCCGACAATTTTC | 545 |
| CTAAATATACAACCTGATGAGAAAGTAAGGTAATTC | 549 |
| CTAAAATGCCCCCCTCAGGTGTCGTTAAATAAGTTC | 514 |
| CTAATCTACCTGTTCCACATGGGCGGTTATACCTTC | 552 |
| GAAGCTTCTTCTTGTGTGATGATGAGTTATTTTTAG | 565 |
| CTACTAGTACATTATCACATGCGGTGTAAGAAGTTC | 1160 |
| CTAACGACTATTTATCACGTCTTGGCTTAGCTATTC | 569 |

Set 3
Target: RNA binding protein fox-1 homolog 2, RRM domain, GST-SBP tag (RBFOX2, Homo sapiens, UniProt O43251-10, residues 100-194)
Technique: RNA Bind-n-Seq
Form: RNA
Matrix: in vitro
Tested at: 365 nM
Notes: natural RNA segment, single round, ends assumed
Relative to: no-protein control
Direction: higher = stronger binding
Constant ends, left off below: GGGAGUUCUACAGUCCGACGAUC … UGGAAUUCUCGGGUGCCAA
Target sequence (chain): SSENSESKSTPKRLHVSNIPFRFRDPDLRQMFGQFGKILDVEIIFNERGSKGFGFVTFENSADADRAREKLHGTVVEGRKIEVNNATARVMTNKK
| Sequence | RBNS enrichment (R) |
| --- | --- |
| AUUGAUUACAUUUUUGGUGAUCACCGAGAAUUUUUUGUACUAUAUUUUAAAAAAUGUAUUCUACUGUAACAAGUUAAUAAAGAGAUUUUUUAAAAAACUAUAAACUAGAA | 1.54 |
| UACUUGGACCCUCAGAUCUUCUUUUCUAAUAGCCAUUUGCCACCCCAAGUGGUAUGUCGGCCAUUUCUCCUUAAAACACCUUCCCUACCUUUCCCAUGUACUCAGUUUAG | 0.437 |
| AAUUCUUUUAACAGCCUGUCCUCCCGGCAUCAGGAGUCAUUGAACAAUCAUGGAUUGUUGUGUUUGGGAUUUUUUUUUUUUUGGCUUUGUUUUUGGUUUUUGUGUGUGUG | 1.12 |
| UUCUGUGAAGCCCUUUGCCUGUAGAGCCAGCCUUGGUUGGACCUAUUGCCAGGAAUGUUUCAGCUGCAGUUGAAGAGCCUGACAAGUGAAGUUGUAAACACAGUGUGGUU | 0.249 |
| UACCCGGCUGAUGGUUAGCCCCUUGCUGCCUGCUCCAUGUGUCUUAUGAGAGCCCGUAGUUACAGUGUCCUCUAAUUUGAAAUCCAUAAGUUAACAAGUCUAUAUCAGGU | 0.429 |
| UCAUUUUUUAAUAUAGUAUGCCAAUUUUGUGACUGUUACCAUGUGAAAGUCCUGUUGAAAUGAACAAUUGUCUGCCCCACAAUCAAGAAUGUAUGUGUAAAGUGUGAAUA | 17.1 |
| AAAUUAAGAGUGUAAGCAGUUGUGAAUCAUUACAAGCAGUCUGGGAUAACUAACUCCUAGGGAUAACCAUUUCUAUCCUGUUCCAAAGUCUUAUUUUAUAGUUUGAAAAG | 0.492 |
| CCUAGCCUCGUAGAGACCAAAGGCCGCCCCCGCCUGCUGGGGUUCCUCCCAGCACCCCAGCUUGCUGGCUGCCCUCUUUGCCUUCUGGCCUCCAGCUGGGUGUGGGGGGG | 0.425 |
| GUUGUGAAGUGCAGGGCGGGAGGUGGGCGUGAGCUUUCUAUUUUGCGUUGUAGAAGAAGUGAGAUGUAGUAAGCUAAUUAACAGACUUUCUAGCAGUUCUUUUUGUGAUG | 0.577 |
| UGAUACGGAGUCGUCUUGUCUGCAUUUUGGCCUCAGCAUCAUUAACUUCAAAGCUUUAUUCUGUCUGCCUGAGAGGAUCCAUGGAAGAUGAUUCUCCCAAAAAGCAGAAA | 0.802 |
| GGAGGGAGGAAGCUUAUUAGGUUCACUGUUGAAUGAUGAUUGAAGAGUACCUGCUGCUGUAUCUUGGAAGAUGACAACAUCCUUUUUCAUUACUGUUUGAUUGAAAAUAA | 2.28 |
| CAUCCCUUCCUCCUCUCCUGGAAACAGACAGGGAGAAGUUGAGCAGGUAUCAACUAGGGGAGGAGAGAGGGUCUCCAGUGUUCCCCCCAUAGAGACCAGGAGGGAGAGCC | 0.836 |

Set 4
Target: Histone acetyltransferase KAT6A, both winged helices, GST fusion (KAT6A, Homo sapiens, UniProt Q92794, residues 1-181)
Technique: protein binding microarray
Form: double-stranded DNA, one strand shown
Matrix: in vitro
Tested at: not given
Notes: 8-mer, flanks averaged, mean of 2 arrays, mostly near background
Relative to: not given
Direction: higher = stronger binding
Residues (chain): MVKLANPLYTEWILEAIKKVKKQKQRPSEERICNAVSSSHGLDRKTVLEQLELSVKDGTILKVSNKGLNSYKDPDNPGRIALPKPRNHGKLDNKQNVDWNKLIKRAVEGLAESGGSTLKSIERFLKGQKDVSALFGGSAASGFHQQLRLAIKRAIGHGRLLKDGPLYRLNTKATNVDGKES
| Sequence | E-score |
| --- | --- |
| CTTCCCTA | -0.205 |
| TATATGAA | -0.0218 |
| AACTATGT | -0.177 |
| AGTGTTCC | -0.0152 |
| CAGTATAG | -0.0497 |
| ATCAATAG | -0.177 |
| AGCAATTA | 0.00762 |
| GTGCAACA | -0.139 |
| ATTTTCTC | -0.0734 |
| AACAGGCC | -0.0751 |
| ACCGGTAC | 0.186 |
| CGCCGAAA | 0.228 |
| CCGCAGCA | 0.0418 |
| ACAGCGTA | 0.123 |
| ACTGCTAC | -0.169 |
| CACTTGGC | -0.109 |
| AGGCAGGG | -0.308 |
| GTGGGACA | -0.0267 |
| ATATCAAG | -0.0476 |
| AGTAGAAC | -0.106 |
| ACGTTCGG | 0.0955 |
| GACAGAAC | 0.0685 |
| AATAATAG | -0.188 |
| CATCTCGA | -0.123 |
| AGCGTTTC | 0.129 |

A few entries again (set 4):
| Sequence | E-score |
| --- | --- |
| AGTGTTCC | -0.0152 |
| CAGTATAG | -0.0497 |
| ATCAATAG | -0.177 |
| AGCAATTA | 0.00762 |
| GTGCAACA | -0.139 |
| ATTTTCTC | -0.0734 |
| AACAGGCC | -0.0751 |
| ACCGGTAC | 0.186 |
| CGCCGAAA | 0.228 |
